Experimental data from different studies.
Lines come from different studies, so protocols differ. Numbers after ± are the reported error.
MAPK8: Mitogen-activated protein kinase 8 (MAPK8, Homo sapiens, UniProt P45983)
E3 ubiquitin-protein ligase NEDD4: E3 ubiquitin-protein ligase NEDD4 (Homo sapiens, UniProt P46934)
GBA2: Beta-glucosidase (GBA2, Homo sapiens, UniProt Q9HCG7)

Amino acid sequences for entries named in this document (tags omitted). Residues count along the entry.
UniProt P45983, whole entry: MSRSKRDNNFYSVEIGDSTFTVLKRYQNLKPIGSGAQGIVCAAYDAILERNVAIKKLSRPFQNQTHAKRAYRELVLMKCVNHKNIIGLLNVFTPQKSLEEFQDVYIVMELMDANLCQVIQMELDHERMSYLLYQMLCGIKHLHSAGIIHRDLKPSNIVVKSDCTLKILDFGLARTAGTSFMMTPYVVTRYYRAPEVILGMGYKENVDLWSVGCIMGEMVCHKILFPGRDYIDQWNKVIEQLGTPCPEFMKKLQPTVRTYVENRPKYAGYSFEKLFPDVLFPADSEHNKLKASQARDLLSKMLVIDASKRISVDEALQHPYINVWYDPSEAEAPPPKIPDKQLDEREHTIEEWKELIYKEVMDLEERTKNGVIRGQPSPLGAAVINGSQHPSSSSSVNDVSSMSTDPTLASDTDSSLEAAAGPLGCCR
UniProt P45983, 1-384 isoform 3: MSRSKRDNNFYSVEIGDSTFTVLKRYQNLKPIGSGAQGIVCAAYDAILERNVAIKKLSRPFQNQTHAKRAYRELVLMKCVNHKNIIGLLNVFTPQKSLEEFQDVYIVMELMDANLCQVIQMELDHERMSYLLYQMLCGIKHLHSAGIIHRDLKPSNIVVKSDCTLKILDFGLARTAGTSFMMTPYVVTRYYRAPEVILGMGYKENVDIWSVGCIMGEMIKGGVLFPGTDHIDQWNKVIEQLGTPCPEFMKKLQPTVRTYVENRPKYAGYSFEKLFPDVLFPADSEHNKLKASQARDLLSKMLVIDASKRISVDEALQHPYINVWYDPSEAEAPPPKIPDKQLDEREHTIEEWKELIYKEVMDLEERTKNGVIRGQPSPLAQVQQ
UniProt P46934, whole entry, looked up: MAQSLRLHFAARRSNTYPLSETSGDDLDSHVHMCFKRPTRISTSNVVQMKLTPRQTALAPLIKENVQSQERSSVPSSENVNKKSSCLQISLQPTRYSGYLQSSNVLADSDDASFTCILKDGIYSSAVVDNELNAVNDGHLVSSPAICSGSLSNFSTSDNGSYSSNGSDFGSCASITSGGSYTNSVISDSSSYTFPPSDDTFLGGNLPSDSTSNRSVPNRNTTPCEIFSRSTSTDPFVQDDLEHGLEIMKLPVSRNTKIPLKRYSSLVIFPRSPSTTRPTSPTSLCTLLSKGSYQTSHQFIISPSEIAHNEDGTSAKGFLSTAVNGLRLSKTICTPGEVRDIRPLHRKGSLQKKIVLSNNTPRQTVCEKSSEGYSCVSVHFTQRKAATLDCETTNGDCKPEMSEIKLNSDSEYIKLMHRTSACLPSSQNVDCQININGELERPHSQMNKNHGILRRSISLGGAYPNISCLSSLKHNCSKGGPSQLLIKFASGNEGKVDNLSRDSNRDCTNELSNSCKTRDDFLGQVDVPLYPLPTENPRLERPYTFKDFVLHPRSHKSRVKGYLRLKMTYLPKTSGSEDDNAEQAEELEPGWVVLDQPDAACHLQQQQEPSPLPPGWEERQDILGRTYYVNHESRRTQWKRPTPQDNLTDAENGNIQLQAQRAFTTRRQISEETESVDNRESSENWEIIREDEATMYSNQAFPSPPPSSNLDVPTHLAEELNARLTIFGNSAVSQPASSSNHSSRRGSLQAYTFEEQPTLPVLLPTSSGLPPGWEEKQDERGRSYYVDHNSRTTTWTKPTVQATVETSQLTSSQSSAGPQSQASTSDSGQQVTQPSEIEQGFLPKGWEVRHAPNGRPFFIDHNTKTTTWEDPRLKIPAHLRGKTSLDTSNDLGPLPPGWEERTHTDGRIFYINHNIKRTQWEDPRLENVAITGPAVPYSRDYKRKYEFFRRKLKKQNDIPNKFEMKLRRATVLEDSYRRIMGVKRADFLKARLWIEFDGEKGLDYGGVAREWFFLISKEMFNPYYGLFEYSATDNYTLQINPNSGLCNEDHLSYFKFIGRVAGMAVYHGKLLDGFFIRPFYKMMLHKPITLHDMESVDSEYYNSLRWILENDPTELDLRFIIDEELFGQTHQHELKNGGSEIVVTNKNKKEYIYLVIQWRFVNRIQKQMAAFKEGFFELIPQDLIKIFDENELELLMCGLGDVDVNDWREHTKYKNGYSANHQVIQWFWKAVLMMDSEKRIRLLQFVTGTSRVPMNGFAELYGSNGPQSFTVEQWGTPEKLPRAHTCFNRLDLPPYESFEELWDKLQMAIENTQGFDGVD
UniProt Q9HCG7, whole entry: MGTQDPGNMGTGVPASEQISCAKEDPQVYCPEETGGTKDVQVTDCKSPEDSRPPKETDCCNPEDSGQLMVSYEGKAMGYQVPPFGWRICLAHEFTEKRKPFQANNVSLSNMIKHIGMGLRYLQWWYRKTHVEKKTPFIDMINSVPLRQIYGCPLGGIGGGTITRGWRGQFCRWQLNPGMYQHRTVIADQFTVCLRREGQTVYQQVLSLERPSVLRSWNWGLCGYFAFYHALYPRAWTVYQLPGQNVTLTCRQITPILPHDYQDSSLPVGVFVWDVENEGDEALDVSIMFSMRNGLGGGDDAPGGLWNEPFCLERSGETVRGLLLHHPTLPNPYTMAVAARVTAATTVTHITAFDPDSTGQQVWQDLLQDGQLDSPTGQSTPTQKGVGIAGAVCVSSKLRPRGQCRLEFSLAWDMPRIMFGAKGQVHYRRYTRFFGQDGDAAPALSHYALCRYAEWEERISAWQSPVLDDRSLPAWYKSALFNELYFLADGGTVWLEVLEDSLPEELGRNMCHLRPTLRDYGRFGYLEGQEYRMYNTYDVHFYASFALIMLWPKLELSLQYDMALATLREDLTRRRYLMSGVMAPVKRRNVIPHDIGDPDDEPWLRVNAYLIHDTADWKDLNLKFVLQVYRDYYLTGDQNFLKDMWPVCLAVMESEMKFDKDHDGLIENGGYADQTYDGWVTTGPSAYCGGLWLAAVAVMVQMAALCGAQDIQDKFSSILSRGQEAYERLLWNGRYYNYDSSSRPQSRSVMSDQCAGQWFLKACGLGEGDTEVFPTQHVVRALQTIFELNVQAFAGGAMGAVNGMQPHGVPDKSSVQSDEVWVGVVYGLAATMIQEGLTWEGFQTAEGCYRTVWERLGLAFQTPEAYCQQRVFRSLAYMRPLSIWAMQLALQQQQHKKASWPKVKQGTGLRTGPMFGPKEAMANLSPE
UniProt O08529, whole entry: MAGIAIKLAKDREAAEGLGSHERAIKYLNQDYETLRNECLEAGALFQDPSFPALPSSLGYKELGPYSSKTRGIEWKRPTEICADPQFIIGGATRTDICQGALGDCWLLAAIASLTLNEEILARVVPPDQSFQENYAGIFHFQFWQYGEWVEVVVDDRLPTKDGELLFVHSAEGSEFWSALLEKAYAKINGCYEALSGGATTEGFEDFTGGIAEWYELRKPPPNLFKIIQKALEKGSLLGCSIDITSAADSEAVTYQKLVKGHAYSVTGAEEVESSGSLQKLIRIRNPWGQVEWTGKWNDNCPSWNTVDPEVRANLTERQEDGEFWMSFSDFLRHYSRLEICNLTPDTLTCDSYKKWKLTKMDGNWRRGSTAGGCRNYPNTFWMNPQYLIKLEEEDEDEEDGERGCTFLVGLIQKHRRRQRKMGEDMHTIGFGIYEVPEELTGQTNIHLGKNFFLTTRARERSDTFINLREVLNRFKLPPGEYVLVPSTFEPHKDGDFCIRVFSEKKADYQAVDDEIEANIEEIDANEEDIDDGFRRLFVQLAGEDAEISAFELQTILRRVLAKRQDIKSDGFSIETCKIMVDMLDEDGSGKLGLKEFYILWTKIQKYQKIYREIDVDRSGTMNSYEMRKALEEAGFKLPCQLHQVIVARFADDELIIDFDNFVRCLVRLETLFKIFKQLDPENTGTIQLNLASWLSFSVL
UniProt P52895, whole entry: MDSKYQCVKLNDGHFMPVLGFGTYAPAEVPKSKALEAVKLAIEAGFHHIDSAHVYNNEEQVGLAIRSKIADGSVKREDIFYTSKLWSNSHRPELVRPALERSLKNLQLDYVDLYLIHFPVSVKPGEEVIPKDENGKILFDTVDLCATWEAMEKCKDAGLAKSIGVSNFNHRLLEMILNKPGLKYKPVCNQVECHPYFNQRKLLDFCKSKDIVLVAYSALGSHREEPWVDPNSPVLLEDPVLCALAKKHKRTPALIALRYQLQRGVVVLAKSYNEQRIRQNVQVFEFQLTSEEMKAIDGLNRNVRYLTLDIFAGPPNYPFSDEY
UniProt P42574, 29-175 limits assumed: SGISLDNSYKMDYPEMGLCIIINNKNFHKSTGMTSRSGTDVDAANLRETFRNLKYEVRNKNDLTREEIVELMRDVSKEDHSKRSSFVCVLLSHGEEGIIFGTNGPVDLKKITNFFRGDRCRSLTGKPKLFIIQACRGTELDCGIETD
UniProt P42574, 176-277 limits assumed: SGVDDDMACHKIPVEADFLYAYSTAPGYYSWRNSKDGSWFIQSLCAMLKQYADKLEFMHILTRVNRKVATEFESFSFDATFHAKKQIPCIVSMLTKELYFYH
UniProt P50750, whole entry: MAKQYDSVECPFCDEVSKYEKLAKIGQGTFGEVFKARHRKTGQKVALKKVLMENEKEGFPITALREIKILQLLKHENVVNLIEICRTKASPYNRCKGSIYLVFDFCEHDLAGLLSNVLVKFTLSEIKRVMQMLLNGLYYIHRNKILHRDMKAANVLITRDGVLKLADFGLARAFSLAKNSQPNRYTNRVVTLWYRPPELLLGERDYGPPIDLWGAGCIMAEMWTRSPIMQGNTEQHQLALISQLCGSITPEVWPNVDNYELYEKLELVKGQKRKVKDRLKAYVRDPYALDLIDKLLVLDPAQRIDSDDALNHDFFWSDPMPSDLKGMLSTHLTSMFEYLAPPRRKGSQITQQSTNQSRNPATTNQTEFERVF
UniProt P46116, whole entry: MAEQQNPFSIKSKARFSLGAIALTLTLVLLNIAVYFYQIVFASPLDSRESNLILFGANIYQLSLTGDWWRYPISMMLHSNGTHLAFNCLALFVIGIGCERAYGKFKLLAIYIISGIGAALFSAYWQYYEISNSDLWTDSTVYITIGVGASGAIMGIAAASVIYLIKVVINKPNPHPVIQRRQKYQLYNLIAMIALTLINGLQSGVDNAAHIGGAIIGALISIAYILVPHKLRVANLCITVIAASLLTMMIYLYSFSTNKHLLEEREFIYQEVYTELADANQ
UniProt Q9BY41, whole entry: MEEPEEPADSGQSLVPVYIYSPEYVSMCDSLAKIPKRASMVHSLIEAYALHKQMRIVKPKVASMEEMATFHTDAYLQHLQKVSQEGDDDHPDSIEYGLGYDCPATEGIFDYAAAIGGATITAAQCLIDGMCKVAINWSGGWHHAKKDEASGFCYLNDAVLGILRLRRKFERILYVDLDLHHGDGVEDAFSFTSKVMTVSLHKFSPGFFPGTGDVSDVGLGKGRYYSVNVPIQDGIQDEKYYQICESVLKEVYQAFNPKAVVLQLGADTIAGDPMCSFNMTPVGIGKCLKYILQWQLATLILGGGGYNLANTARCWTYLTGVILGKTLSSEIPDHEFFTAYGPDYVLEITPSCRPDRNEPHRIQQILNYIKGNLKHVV
UniProt P41148, 22-804 limits assumed: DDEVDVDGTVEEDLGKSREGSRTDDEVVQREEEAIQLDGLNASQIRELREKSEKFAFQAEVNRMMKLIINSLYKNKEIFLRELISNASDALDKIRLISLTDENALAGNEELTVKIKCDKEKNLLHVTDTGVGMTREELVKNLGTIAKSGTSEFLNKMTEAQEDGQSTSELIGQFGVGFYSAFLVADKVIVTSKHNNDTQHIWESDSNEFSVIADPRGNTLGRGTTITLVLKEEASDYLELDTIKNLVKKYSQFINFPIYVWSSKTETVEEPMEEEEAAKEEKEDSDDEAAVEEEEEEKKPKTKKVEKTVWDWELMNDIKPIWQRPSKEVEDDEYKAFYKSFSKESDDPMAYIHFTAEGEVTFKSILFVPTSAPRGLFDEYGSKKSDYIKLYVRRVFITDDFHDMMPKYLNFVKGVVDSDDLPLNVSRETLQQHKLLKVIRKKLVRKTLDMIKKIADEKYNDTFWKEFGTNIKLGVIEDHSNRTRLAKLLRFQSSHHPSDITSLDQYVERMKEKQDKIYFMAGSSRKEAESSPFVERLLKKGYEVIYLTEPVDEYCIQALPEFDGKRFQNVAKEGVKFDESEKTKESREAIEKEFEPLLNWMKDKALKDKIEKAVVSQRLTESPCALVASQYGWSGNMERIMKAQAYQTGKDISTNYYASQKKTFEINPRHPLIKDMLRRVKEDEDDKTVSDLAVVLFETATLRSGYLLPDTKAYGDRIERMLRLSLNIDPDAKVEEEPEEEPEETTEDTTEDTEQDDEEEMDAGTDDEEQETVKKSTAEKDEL
UniProt O88456, whole entry partner: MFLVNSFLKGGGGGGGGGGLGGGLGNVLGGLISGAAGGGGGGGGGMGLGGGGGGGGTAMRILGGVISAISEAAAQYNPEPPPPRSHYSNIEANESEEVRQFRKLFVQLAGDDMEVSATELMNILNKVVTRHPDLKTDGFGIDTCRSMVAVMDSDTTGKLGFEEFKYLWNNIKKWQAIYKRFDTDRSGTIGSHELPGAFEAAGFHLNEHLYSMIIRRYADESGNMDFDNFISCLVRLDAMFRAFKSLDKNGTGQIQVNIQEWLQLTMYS

| SMILES | target or system | test | test system | setting | how to read | endpoint | result |
| --- | --- | --- | --- | --- | --- | --- | --- |
| COC(=O)[C@@]1(C)C=C(C(=O)Nc2cccc(C(=O)NC34CC(Nc5nccc(-c6cccnc6)n5)(C3)C4)c2)C(=O)CC1 | MAPK8 | kinase activity, inhibitor | – | 0.1829 µM, added: 10 mM GSH | – | remaining activity | 0.166 fraction of control |
| CCOC(=O)/C=C/CNCCCCN1c2ccccc2CCc2ccc(Cl)cc21 | E3 ubiquitin-protein ligase NEDD4 | inhibitor, Ub-TR-FRET | – | 100 µM, 1 h preincubation, HECT domain, DMSO up to 2%, added: ATP 2 mM | higher = more ubiquitination | ubiquitination TR-FRET signal AUC | 16500 a.u. |
| OC[C@H]1[C@@H](O)[C@H](O)[C@@H](O)CN1CCCCCOCc1ccc(Br)cc1 | GBA2 | – | – | – | reference: GBA1 IC50 over GBA2 IC50 | selectivity ratio | 402000 |
| COC(=O)[C@@H]1C(c2nc3cc(Cl)ccc3o2)=Cc2cc3c(cc2[C@H]1c1cc(OC)c(OC)c(OC)c1)OCO3 | Leishmania infantum | iRFP fluorescence | mouse splenocytes infected, amastigote, iRFP, ex vivo splenic explant | 48 h | – | EC50 | 12.1 ± 0.4 µM |
| CCC(NC(=O)C(CC(C)C)NC(=O)Cc1ccncc1)C(=O)C(=O)NCc1cc(OC)cc(OC)c1 (stereo not drawn) | Calpain-2 catalytic subunit (Capn2, Mus musculus, UniProt O08529) | enzyme activity, inhibitor | pons-cerebellum membrane fractions | added: calcium 2 mM | reference: IC50 calpain-1 over calpain-2 | selectivity ratio | 0.8 |
| O=C(O)c1ccc(Nc2cccc(C(=O)O)c2)cc1 | AKR1C2 (Homo sapiens, UniProt P52895) | enzyme activity, inhibitor | – | added: S-tetralol, NADP+ | reference: IC50 AKR1C2 over IC50 AKR1C3 | selectivity ratio | 12 |
| CC(=O)N[C@H](C(=O)N[C@@H](CC(=O)O)C(=O)N[C@H](C(=O)N1CCc2cc(C)ccc2[C@@H]1C(=O)N[C@H](C=O)CC(=O)O)C(C)C)C(C)C | Caspase-3 (CASP3, Homo sapiens, UniProt P42574) | enzyme activity, inhibitor | – | – | reference: Ki CASP3 over Ki caspase-2 | selectivity ratio | > 9 |
| OCC1C(O)C(O)C(O)CN1CC(F)(F)CCCOCc1ccc(-c2ccccc2)cc1 (stereo not drawn) | GBA2 | – | – | – | reference: GBA1 IC50 over GBA2 IC50 | selectivity ratio | 250000 |
| CN1CC[C@H](c2c(O)cc(O)c3c(=O)cc(-c4ccccc4F)oc23)[C@H](O)C1 | Cyclin-dependent kinase 9, with cyclin T1 (CDK9, Homo sapiens, UniProt P50750) | kinase activity, inhibitor | – | – | reference: CDK9/cyclin T1 over CDK2/cyclin A | selectivity ratio | 127 fold |
| OC[C@@H]1[C@@H](O)[C@H](O)[C@@H](O)CN1CCCCCOCc1ccc(-c2cccnc2)cc1 | GBA2 | – | – | – | reference: GBA1 IC50 over GBA2 IC50 | selectivity ratio | 300 |
| C=C1C[C@]2(C(=O)OC)C=C(C(=O)OC(C)(C)C)C(=O)[C@H]1C2 (relative stereo) | MAPK8 | – | – | – | reference: Ki ERK2 over Ki target | selectivity ratio | > 5 fold |
| CN(C)C(=O)Cn1cc(-c2ccc(-c3cncc4ccncc34)cc2)cn1 | other kinases except CDK19 | enzyme activity, SelectScreen | – | – | reference: other kinases over CDK8 | selectivity ratio | > 300 fold |
| COc1ccc2c3c(cccc13)C(=O)N(C)C2=O | Rhomboid protease AarA (Providencia stuartii, UniProt P46116) | – | – | – | reference: IC50 chymotrypsin over IC50 AarA | selectivity ratio | 0.6 |
| OC[C@H]1[C@@H](O)[C@H](O)[C@@H](O)CN1CCCCCOCCc1ccsc1 | GBA2 | – | – | – | reference: GBA1 IC50 over GBA2 IC50 | selectivity ratio | 205000 |
| COC(=O)[C@@H]1C(c2nc3cc(C(F)(F)F)ccc3s2)=Cc2cc3c(cc2[C@H]1c1cc(OC)c(OC)c(OC)c1)OCO3 | Leishmania infantum | iRFP fluorescence | mouse splenocytes infected, amastigote, iRFP, ex vivo splenic explant | 48 h | – | EC50 | 42.3 ± 3.1 µM |
| CCOC(=O)/C=C/CNCCCN1c2ccccc2CCc2ccc(Br)cc21 | E3 ubiquitin-protein ligase NEDD4 | inhibitor, Ub-TR-FRET | – | 1.235 µM, 1 h preincubation, HECT domain, added: ATP 2 mM | higher = more ubiquitination | ubiquitination TR-FRET signal AUC | 119000 a.u. |
| O=C(CCCCCCN(Cc1ccc2ccccc2c1)Cc1ccc2ccccc2c1)NO | HDAC8 (Homo sapiens, UniProt Q9BY41) | – | – | – | reference: IC50 HDAC8 over HDAC1 | selectivity ratio | 4.9 |
| COC(=O)c1c(O)cc(O)c(Cl)c1CCc1ccccc1Cc1cccc(Cl)c1 | Endoplasmin (HSP90B1, Canis lupus familiaris, UniProt P41148) | fluorescence polarization | – | added: FITC-geldanamycin tracer | reference: Grp94 over Hsp90α | selectivity ratio | 4 fold |

Some of these lines once more:
| SMILES | target or system | test | test system | setting | how to read | endpoint | result |
| --- | --- | --- | --- | --- | --- | --- | --- |
| O=C(O)c1ccc(Nc2cccc(C(=O)O)c2)cc1 | AKR1C2 (Homo sapiens, UniProt P52895) | enzyme activity, inhibitor | – | added: S-tetralol, NADP+ | reference: IC50 AKR1C2 over IC50 AKR1C3 | selectivity ratio | 12 |
